Experimental data collected from several papers.
Numbers after ± are the reported error.

SMILES | tested on | test | test system | setting | endpoint | result
COc1cc2c(cc1O)[C@]1(O)C(=O)c3c(O)cc4c(c3O[C@@H]1CO2)C=CC(C)(C)O4 | SW480 | cell growth or viability, MTT |  | 50 µg/mL | viability | 7.72%
O=c1[nH]cc(C(c2cccc(Cl)c2)c2c[nH]c(=O)[nH]c2=O)c(=O)[nH]1 | Mo7e | cell growth or viability, WST-1 |  | 1 µg/mL, 24 h | viability | > 90%
N#Cc1c(NC(=O)CCl)sc2c1CCC(c1ccccc1)C2 (centres unmarked) | LoVo | cell growth or viability, LDH |  | 100 µg/mL, 24 h | viability | 77%
COc1ccc([C@@H]2CC(=O)c3c(O)cc(O[C@@H]4O[C@H](CO[C@@H]5O[C@@H](C)[C@H](O)[C@@H](O)[C@H]5O)[C@@H](O[C@H]5O[C@H](CO)[C@@H](O)[C@H](O)[C@H]5O)[C@H](O)[C@H]4O)cc3O2)cc1O | MRC5 | cell growth or viability, MTS |  | 100 µg/mL, 48 h | viability | 55.4%
C=CS(=O)(=O)NCCCCCCCCCCOCc1cn(CCCCCCCCCCNS(=O)(=O)C=C)nn1 | L929 | cell growth or viability, resazurin |  | 50 µM, 72 h | viability | 0.9%
O=c1[nH]cc(C(c2cccc(C(F)(F)F)c2)c2c[nH]c(=O)[nH]c2=O)c(=O)[nH]1 | Mo7e | cell growth or viability, WST-1 |  | 1 µg/mL, 24 h | viability | > 90%
CCC(=O)NCc1ccccc1 | DH82 | cell growth or viability, MTT |  | 200 µM, 24 h | viability | 98.6%
O=C(/C=C/c1coc2ccccc2c1=O)N1CCN(C(=S)SCc2ccccc2)CC1 | tomato spotted wilt virus | viral infection, half-leaf method | Nicotiana glutinosa | 500 µg/mL | curative effect | 51.9 ± 2.3%
O=c1[nH]cc(C(c2ccc(Cl)cc2)c2c[nH]c(=O)[nH]c2=O)c(=O)[nH]1 | Mo7e | cell growth or viability, WST-1 |  | 1 µg/mL, 24 h | viability | > 90%
CN(C)CCSC(=S)N1CCN(C(=O)/C=C/c2coc3ccccc3c2=O)CC1 | tomato spotted wilt virus | viral infection, half-leaf method | Nicotiana glutinosa | 500 µg/mL | curative effect | 62.1 ± 2.5%
C=CS(=O)(=O)NCCCCCCOCc1cn(CCCCCCNS(=O)(=O)C=C)nn1 | L929 | cell growth or viability, resazurin |  | 50 µM, 72 h | viability | 21.1%
CC(C)=CCc1c2c(c(O)c3c(=O)c(-c4ccc(O)cc4)coc13)CC(C(C)(C)O)O2 (centres unmarked) | SW480 | cell growth or viability, MTT |  | 100 µg/mL | viability | 8.78%
Cc1ccc(C(C)C)cc1.Oc1ccccc1C=NNC1=Nc2ccccc2-c2[nH]c3ccc(Br)cc3c2C1.[Cl-].[Cl][Os+] | SW480 | annexin V/PI flow cytometry |  | 5 µM, 48 h | viability | 63%
CC(C)=CCc1cc(-c2coc3cc(O)c(CC=C(C)C)c(O)c3c2=O)ccc1O | SW480 | cell growth or viability, MTT |  | 25 µg/mL | viability | 152%
Cc1ccc(C(C)C)cc1.Cc1ncc(CO)c(C=NNC2=Nc3ccccc3-c3[nH]c4ccc(Br)cc4c3C2)c1O.[Cl-].[Cl][Ru+] | SW480 | annexin V/PI flow cytometry |  | 5 µM, 48 h | viability | 56%
CC12CCCC(n3cc(C(=O)N4CCCC(N)C4)nn3)(C1)C1CC(C)(C)C1CC2 (centres unmarked) | HT-29 |  |  | 0.5 µM, 72 h, added: Z-VAD-FMK pretreatment 8 h | viability | 96%
C=CS(=O)(=O)NCCCCCCOCc1cn(CCCCCCNS(=O)(=O)C=C)n[n+]1C | L929 | cell growth or viability, resazurin |  | 50 µM, 72 h | viability | 49.5%
COc1ccc(-c2coc3c(CC=C(C)C)c(O)c(CC=C(C)C)c(O)c3c2=O)cc1O | SW480 | cell growth or viability, MTT |  | 25 µg/mL | viability | 72%
C[C@@H]1Cc2cc(C(=O)C3=C(O)C(=O)N(CCc4ccccc4)[C@@H]3c3cccc(OCc4ccccc4)c3)ccc2O1 | HUVEC | MTT |  | up to 100 µM, 24 h, serum-free, 0.05% BSA | viability | > 75%
C=CC(=O)Nc1cccc2c1cc(C)n2-c1nc2c(c(NCc3ccccc3)n1)CCCC2 | Huh-7 cells, uninfected |  |  | 0.5 µM, 5 days | viability | 57 ± 4%

Some of these lines once more:
SMILES | tested on | test | test system | setting | endpoint | result
C[C@@H]1Cc2cc(C(=O)C3=C(O)C(=O)N(CCc4ccccc4)[C@@H]3c3cccc(OCc4ccccc4)c3)ccc2O1 | HUVEC | MTT |  | up to 100 µM, 24 h, serum-free, 0.05% BSA | viability | > 75%
C=CS(=O)(=O)NCCCCCCCCCCOCc1cn(CCCCCCCCCCNS(=O)(=O)C=C)nn1 | L929 | cell growth or viability, resazurin |  | 50 µM, 72 h | viability | 0.9%
